Results of several laboratories.
Each line is one published result; not all experiments were run side by side. ± marks the error that the study gave.

Structure (SMILES)	item	sample	concentration	time	pH	notes	intrinsic clearance
CCC1=C(CC)/C(=C/NC2CCCCCCC2)N=C1c1ccc(-c2ccc(OC)cc2)[nH]1	–	mouse liver microsomes	1 µM	–	pH 7.4	–	-46.6 µL/min/mg
COc1ccc(-c2nc(N)nc(N)c2OCCCOc2ccccc2CCC(=O)O)cc1	–	human liver microsomes	–	–	–	39.7 mg protein/g liver	< 0.4 mL/min/g liver
CCC1=C(C)/C(=C/NC23C[C@H]4C[C@@H](C2)C[C@@H](C3)C4)N=C1c1ccc(CC)[nH]1	–	mouse liver microsomes	1 µM	–	pH 7.4	–	-19.1 µL/min/mg
O=C1O/C(=C\c2cc(F)ccc2OCCN2CCOCC2)c2cc(Cc3cccc(F)c3)[nH]c(=O)c21	–	rat liver microsomes	–	–	–	–	70.4 mL/min/g protein
O=C(O)Cc1ccccc1Nc1c(Cl)cccc1Cl	–	human liver microsomes	1 µM	–	–	–	150 µL/min/mg
Cc1ccc2c(c1)nc(/C=C/c1cccc3cccnc13)n2-c1ccccc1	–	rat liver microsomes	1.5 µM	–	–	–	143 mL/min/kg
Nc1nc(N)c(OCCCOc2ccccc2CCC(=O)O)c(C2CCCCC2)n1	–	mouse liver microsomes	0.5 µM	–	–	48 mg protein/g liver	< 0.5 mL/min/g liver
C[C@@H]1CN(CC(=O)N2CC(C)(C)c3ncc(Cc4ccc(F)cc4)cc32)[C@@H](CN2CCOC[C@H]2C)CN1	–	cynomolgus liver microsomes	1 µM	–	–	–	530 ± 77 µL/min/mg
CCOCC(=O)N1CCC[C@H](C(=O)NCc2nc(-c3ccccc3)cs2)C1	–	human liver microsomes	0.5 µM	–	–	–	26 µL/min/mg protein
C#C[C@]1(OC(C)=O)CC[C@H]2[C@@H]3CCC4=CC(=NO)CC[C@@H]4[C@H]3CC[C@@]21CC (mixture of isomers)	esterase	human intestinal microsomes	–	–	–	–	32 µL/min/mg
Nc1nc(N)c(OCCCOc2ccccc2CCC(=O)O)c(-c2ccccc2)n1	–	human liver microsomes	–	–	–	39.7 mg protein/g liver	0.43 mL/min/g liver
O=C1O/C(=C\c2cc(F)ccc2OCCN2CC[C@@H](F)C2)c2cc(Cc3cccc(F)c3)[nH]c(=O)c21	–	rat liver microsomes	–	–	–	extrapolated in vivo	69.8 mL/min
Nc1nc(N)c(OCCCOc2ccccc2CCC(=O)O)c(CCCCO)n1	–	mouse liver microsomes	0.5 µM	–	–	48 mg protein/g liver	< 0.5 mL/min/g liver
C=CC(=O)N1CC2(CCN(c3nc4c(c(-c5c(C)ccc6[nH]ncc56)c3C#N)COC(C)(C)C4)C2)C1	–	human liver microsomes	–	–	–	–	100 µL/min/mg
CCOC(=O)C1=C(CN2CCC[C@@H]2C(=O)Nc2ccc(B(O)O)cc2)NC(c2nccs2)=N[C@H]1c1ccc(F)cc1Br	–	human liver microsomes	1 µM	–	pH 7.4	–	8.2 µL/min/mg
CCOc1ccc2ccc(=O)oc2c1	–	human hepatocytes	–	–	–	scaled to liver	205 mL/min/kg
CN1CCN(c2cccc(-c3ccc4ncnc(Nc5ncco5)c4c3)c2)CC1	–	human liver microsomes	–	–	–	–	31 µL/min/mg

Structure (SMILES)	item	sample	concentration	time	pH	notes	intrinsic clearance
N=C(CC(O)c1cc2c(F)cc(F)cc2c2cc(C(F)(F)F)ccc12)Nc1ccc(F)c(F)c1 (stereo not drawn)	–	pooled human liver microsomes	1 µM	60 min	pH 7.4	–	9.4 µL/min/mg
O=C(Cc1ccc2ccccc2c1)Nc1cc(C2CCC2)[nH]n1	–	mouse liver S9	–	–	–	–	24.7 µL/min/mg protein
O=C(NCCN1CCCC1)c1cc(-c2ccc(CN3CCOCC3)cc2)nc2ccc(F)cc12	–	rat liver microsomes	–	–	–	–	≤ 0.7 mL/min/g
C[C@@H]1CN(CC(=O)N2CC(C)(C)c3nc(CO)c(Cc4ccc(F)cc4)cc32)[C@@H](CN2CCOC[C@H]2C)CN1	–	human liver microsomes	1 µM	–	–	–	55 ± 19 µL/min/mg
Clc1cncc(OC[C@@H]2CN(CCN3CCc4ccccc43)CCO2)c1	–	mouse liver microsomes	0.5 µM	–	–	–	25 mL/min/g
CCc1ccc(C2=N/C(=C\NC3CCCCCCC3)C(C)=C2C)[nH]1	–	human liver microsomes	1 µM	–	pH 7.4	–	-1.16 µL/min/mg
O=c1ccc2ccc(O)cc2o1	–	rat liver microsomes	–	–	–	–	573 µL/min/mg protein
CCn1cc2c(N3CCC(c4ccccn4)C3)nc(-c3ccccn3)nc2n1 (stereo not drawn)	–	mouse liver microsomes	–	–	–	–	0 µL/min/mg protein
O=C1c2ccccc2CCN1CCCCN1CCN(c2cccc(Cl)c2Cl)CC1	–	mouse liver microsomes	0.5 µM	–	–	–	31.1 mL/min/g
CCC1=C(CC)/C(=C/NC2CCCCCCC2)N=C1c1ccc(Cc2ccc(OC)cc2)[nH]1	–	mouse liver microsomes	1 µM	–	pH 7.4	–	-6.21 µL/min/mg
Cc1cc2c(c(=O)[nH]1)C(=O)O/C2=C\c1cc(F)ccc1OCCN1CCOCC1	–	rat liver microsomes	–	–	–	–	259 mL/min/g protein
CCOC(=O)c1ccc(N)cc1	–	human liver microsomes	–	–	–	–	83 µL/min/mg
CCC1=C(CC)/C(=C/NC23C[C@H]4C[C@@H](C2)C[C@@H](C3)C4)N=C1c1ccc(Cl)[nH]1	–	mouse liver microsomes	1 µM	–	pH 7.4	–	-22.5 µL/min/mg
O=C(c1ccc(F)cc1)C1CCN(CCn2c(=O)[nH]c3ccccc3c2=O)CC1	–	monkey liver microsomes	–	–	–	–	67.8 mL/min/kg
CCc1nc(N)nc(N)c1OCCCOc1ccccc1CCC(=O)O	–	mouse liver microsomes	0.5 µM	–	–	48 mg protein/g liver	< 0.5 mL/min/g liver
CCC1=C(CC)/C(=C/NC2CCCCC2)N=C1c1ccc(Br)[nH]1	–	human liver microsomes	1 µM	–	pH 7.4	–	-8.35 µL/min/mg

Excerpt of the above:
Structure (SMILES)	item	sample	concentration	time	pH	notes	intrinsic clearance
O=c1ccc2ccc(O)cc2o1	–	rat liver microsomes	–	–	–	–	573 µL/min/mg protein
O=C(O)Cc1ccccc1Nc1c(Cl)cccc1Cl	–	human liver microsomes	1 µM	–	–	–	150 µL/min/mg
O=C1O/C(=C\c2cc(F)ccc2OCCN2CC[C@@H](F)C2)c2cc(Cc3cccc(F)c3)[nH]c(=O)c21	–	rat liver microsomes	–	–	–	extrapolated in vivo	69.8 mL/min
CCC1=C(CC)/C(=C/NC2CCCCC2)N=C1c1ccc(Br)[nH]1	–	human liver microsomes	1 µM	–	pH 7.4	–	-8.35 µL/min/mg
